# Experimental data gathered from unrelated publications.
# Parts stem from different laboratories: compare values within a part only. Substitutions count along the parent as printed.

# Set 1
# Target: Interferon regulatory factor 3, full length, phosphomimetic (IRF3, Homo sapiens, UniProt Q14653, residues 1-427, S386D/S396D/S398D/S402D/T404D/S405D)
# Method: protein-binding microarray
# Form: double-stranded DNA, one strand shown
# Sample: in vitro
# Concentration: 2540 nM top
# Setting: 60-bp whole probe
# With: salmon DNA 0.4 mg/ml
# Relative to: random background probes
# Reading: higher = stronger binding
# All sequences stand within: GCCTAGCAC … GTCTTGATTCGCTTGACGCTGCTG
# Target sequence (chain): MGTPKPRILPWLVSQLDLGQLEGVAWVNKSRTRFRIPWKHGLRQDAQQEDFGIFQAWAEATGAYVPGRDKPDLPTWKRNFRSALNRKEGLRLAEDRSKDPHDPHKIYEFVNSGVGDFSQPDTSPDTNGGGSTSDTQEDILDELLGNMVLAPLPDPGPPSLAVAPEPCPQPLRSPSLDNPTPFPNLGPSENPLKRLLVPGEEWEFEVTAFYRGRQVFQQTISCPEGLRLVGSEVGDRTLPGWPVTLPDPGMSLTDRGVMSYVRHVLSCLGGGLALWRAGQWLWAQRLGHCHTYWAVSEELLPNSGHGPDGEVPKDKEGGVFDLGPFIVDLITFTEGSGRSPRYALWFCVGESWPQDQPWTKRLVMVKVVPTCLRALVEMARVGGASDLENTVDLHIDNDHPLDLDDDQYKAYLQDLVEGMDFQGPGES
Oligonucleotide,fitted relative affinity
GACGGTATCGGTCTCGGCACGTGCTAG,4.42 z-score
TTAGATATCAGTTTCGAATAGTGCTAG,3.94 z-score
GAGGAGATGAGAAACGATGAGTGCTAG,-0.438 z-score
GACGGTATCGACTTTCTGGACGTGCTA,1.22 z-score
TCACCTCTGCATTCCCTACTGTGCTAG,0.62 z-score
TTAGATCTCGGTATCGGTTAGTGCTAG,1.99 z-score
GCCGATTTCAGTATCGAGACGTGCTAG,2.98 z-score
ATTGTTTTCAGTTTCACTGCGTGCTAG,4.2 z-score
TTAGATTTCGAGTATCGATTAGTGCTA,1.22 z-score
GACAATATCAGTTTCGAGACGTGCTAG,3.87 z-score
GACGGTATCGGTGTCGGGACGTGCTAG,2.49 z-score
GACGGTCTCCTACTGCTGAGGTGCTAG,1.09 z-score
GACGATTTCGGTTTCGGGACGTGCTAG,7.22 z-score
GACGGTATCGGGACTGTGGACGTGCTA,1.53 z-score
GACGATTCCAGTTTCGAGATGTGCTAG,3.31 z-score
TACGATATCGGGTTTCGAGACGTGCTA,0.951 z-score
TTAGGCATCGGTCTCGGTTAGTGCTAG,-0.0184 z-score
GACGATCTCAGATTCGAGACGTGCTAG,1.07 z-score
TTCGGTCTCGGACTGGGTTAGTGCTAG,0.411 z-score
TACGGTTTCGGGTTTCGGGACGTGCTA,5.69 z-score
TTAGATATCAGTATCGTTTAGTGCTAG,2.21 z-score
TTTAAATTCTAATTAGAATTGTGCTAG,0.843 z-score
GACGGTTCACTTTTCCTGACGTGCTAG,2.49 z-score
TTAGGACTCGGTTTCGGTTAGTGCTAG,4.64 z-score

# Set 2
# Target: ABI1, truncated, D143A, DHFR fusion (Arabidopsis thaliana)
# Method: DHFR PCA, deep sequencing
# Sample: yeast
# Setting: methotrexate growth selection, single substitutions
# With: (+)-ABA 0.032 µM
# Relative to: wild-type fitted maximum
# Reading: higher = stronger binding
# Starting sequence: PYL1, truncated, DHFR fusion (Arabidopsis thaliana); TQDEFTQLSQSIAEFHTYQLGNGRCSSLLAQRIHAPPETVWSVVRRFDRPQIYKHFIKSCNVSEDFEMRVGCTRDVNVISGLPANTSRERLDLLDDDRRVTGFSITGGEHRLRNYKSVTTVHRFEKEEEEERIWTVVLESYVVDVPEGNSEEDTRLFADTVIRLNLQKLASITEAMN
Substitution,relative binding score
E130N,18.3%
K116M,1.14%
H122K,3.1%
L91S,-1.77%
N177P,33.6%
S150D,13.4%
C25Y,-3.39%
L93K,1.43%
S11A,56.4%
F47I,-3.7%
L91C,6.93%
R99G,0.269%
L8D,1.36%
Q2G,5.02%
I133D,52%
W134K,4.69%
C60H,-7.05%
E139R,5.15%
H122R,2.05%
N165R,4.58%

# Set 3
# Target: RNA binding protein fox-1 homolog 2, RRM domain, GST-SBP tag (RBFOX2, Homo sapiens, UniProt O43251-10, residues 100-194)
# Method: RNA Bind-n-Seq
# Form: RNA
# Sample: in vitro
# Concentration: 365 nM
# Setting: natural RNA segment, single round, ends assumed
# Relative to: no-protein control
# Reading: higher = stronger binding
# All sequences stand within: GGGAGUUCUACAGUCCGACGAUC … UGGAAUUCUCGGGUGCCAA
# Construct (chain): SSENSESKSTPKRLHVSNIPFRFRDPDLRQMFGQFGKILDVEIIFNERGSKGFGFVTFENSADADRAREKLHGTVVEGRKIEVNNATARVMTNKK
Oligonucleotide,RBNS enrichment (R)
GCAGGCACUCUGCAGAGGAUGGAAGAGGAGACCCCUGUUCUGGGCUUAUUUAUUAAUCUUGAUUUAAUACGUUCUCUUCCCAAGCUGGAAGAUCCUCUUUCCAGGCCUCU,0.876
AAGCAAGUCGGACCUCUCAGAACUUAGAGUGUGGGAACAGUUUUUUUUUUUUUUUUAAAAAAAACAAAAAACAAACGACCAUUUCUCUAAGCCAAGUUUCUUUUAGAGAC,0.512
AGCAGCUCCCCAGAAAAAAACGACACUGCGAGCCCUCGGGACAUGACUGAGUUCCACCUCCUGAAGCCAGACUCCACCUCUUGUGCUUUUUUGCUUGGGAAAAAGGAGUU,0.277
CCCCAUCCCAGCUUUUAGAGGAUCUGCUCCACUGUCUCCUGGGGCAGUUGUGGGUCACUGUCCCUUCCAGCUGCCCCAGACAGGAAGCAGAGUCACCACGCAGCAGUGUC,0.176
CAGGGGCUUGGCUGCCCCAUUCCAGCUCUCCCAUGGAGCCCCUCCACCGGGCGCAUGCCUCCCAGGCCACCUCAGUCUCACCUGCCGGCUCUGGGCUGGCUGCUCCUAAC,0.587
CUUACUCCAGCCUGGCAGCCUGGCCGACCCUACCCCAAGCCUCUCAACAGAAGCUGUGCAGCCAGGGCAGGCCCAGGCCAGCCAGUACCUGAGAGUAGGAAGGCCAGGCC,0.232
CUGGAUGGAGGCUGGUACUUACCCACCCCUUUUAGCUUUUAGGGAUUAAGGAAGGGUCAAGCCAGCCACUGCUGUGGCCCUGCCCAGGGCUUGGUUGAGGGAACGGCUUC,0.353
AGCAGGGACGCCUUGUCCCCAAGACUUCUCCCCAACUUGGCUCCAUUCCUGCAUUCUGCCAUAGGAAUCACAACUUCCCACAUCAGGCCAUGCUUGCCUAAGACCUCGUU,0.807
GAAGAGAAAUGGUCUCCUUGGUUUUAAAAAUAACUUAGUGUCACGGUACUUUCUCUGUCCUCUCAACUGAGGACAGUGACUAGUUAAUCUUGACAUAAUUGCAUUUGGCU,0.561
UGAGGCAGGGAGCGGACUUCCUAUUUUCUACCCUCAGUAAAACAAGGUGCUGCUUUGUAUAUCAAAAGCUCCAACCAUGUCCUCUCCCCCUCAGCCUGUGGGUGGCACGA,0.588
AGAAAAUGAAAACACAGAAGCAAAGAGAAAUGUGGCACUUCACAUUUUAAACUACAGAUGGACUUGGUUUGAGGGAGGGGGAAUCACAGAUUUGGUGCUAAGUUAAUUAG,0.673
GGUUUUUGGUUUGGAGACAUCCAAAGCCUGAAGCCAGGUGGGUGUGGGCAGGGGCUGCAUUUUAUGAAACUGCCCAGCAAGCUGCGCUCCCUGGGGCCCCAGGAUCCACC,0.491

# Set 4
# Target: Histone acetyltransferase KAT6A, both winged helices, GST fusion (KAT6A, Homo sapiens, UniProt Q92794, residues 1-181)
# Method: protein binding microarray
# Form: double-stranded DNA, one strand shown
# Sample: in vitro
# Concentration: not given
# Setting: 8-mer, flanks averaged, mean of 2 arrays, mostly near background
# Relative to: not given
# Reading: higher = stronger binding
# Residues (chain): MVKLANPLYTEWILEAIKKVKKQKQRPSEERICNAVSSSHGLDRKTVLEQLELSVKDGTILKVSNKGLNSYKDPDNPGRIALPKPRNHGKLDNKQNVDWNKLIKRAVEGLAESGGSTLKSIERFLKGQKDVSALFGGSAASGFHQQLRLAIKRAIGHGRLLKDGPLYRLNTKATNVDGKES
Oligonucleotide,E-score
GGTCTATA,-0.0524
ACCTTAGC,-0.155
GATGAATA,-0.0674
ATAGGAGC,-0.028
GCGTTAGA,0.0978
GGACTCGA,-0.0683
CATGTTTA,0.0773
ACTATCTA,-0.0341
CGACATTC,-0.0482
CGCCTGCC,0.145
GTGAGGCA,-0.0972
ACGATGCG,0.161
GATCACTA,0.0678
GCGTACGC,0.323
AGGATAAA,-0.169
ACCCCCTC,-0.139
AAACTCCA,-0.107
CTGACAAG,-0.0409
ATCCTAGG,-0.201
AAGTTCCC,0.0609
CGAACCTA,-0.0229
CTGTACGA,-0.172
AGCTGCAC,-0.0939
TAAAAAAA,-0.0757
GCAATCCA,0.0637

# Set 5
# Target: Sal-like protein 4, full length isoform A (SALL4, Homo sapiens, UniProt Q9UJQ4, residues 1-1053)
# Sequence of UniProt Q9UJQ4 (whole entry, looked up): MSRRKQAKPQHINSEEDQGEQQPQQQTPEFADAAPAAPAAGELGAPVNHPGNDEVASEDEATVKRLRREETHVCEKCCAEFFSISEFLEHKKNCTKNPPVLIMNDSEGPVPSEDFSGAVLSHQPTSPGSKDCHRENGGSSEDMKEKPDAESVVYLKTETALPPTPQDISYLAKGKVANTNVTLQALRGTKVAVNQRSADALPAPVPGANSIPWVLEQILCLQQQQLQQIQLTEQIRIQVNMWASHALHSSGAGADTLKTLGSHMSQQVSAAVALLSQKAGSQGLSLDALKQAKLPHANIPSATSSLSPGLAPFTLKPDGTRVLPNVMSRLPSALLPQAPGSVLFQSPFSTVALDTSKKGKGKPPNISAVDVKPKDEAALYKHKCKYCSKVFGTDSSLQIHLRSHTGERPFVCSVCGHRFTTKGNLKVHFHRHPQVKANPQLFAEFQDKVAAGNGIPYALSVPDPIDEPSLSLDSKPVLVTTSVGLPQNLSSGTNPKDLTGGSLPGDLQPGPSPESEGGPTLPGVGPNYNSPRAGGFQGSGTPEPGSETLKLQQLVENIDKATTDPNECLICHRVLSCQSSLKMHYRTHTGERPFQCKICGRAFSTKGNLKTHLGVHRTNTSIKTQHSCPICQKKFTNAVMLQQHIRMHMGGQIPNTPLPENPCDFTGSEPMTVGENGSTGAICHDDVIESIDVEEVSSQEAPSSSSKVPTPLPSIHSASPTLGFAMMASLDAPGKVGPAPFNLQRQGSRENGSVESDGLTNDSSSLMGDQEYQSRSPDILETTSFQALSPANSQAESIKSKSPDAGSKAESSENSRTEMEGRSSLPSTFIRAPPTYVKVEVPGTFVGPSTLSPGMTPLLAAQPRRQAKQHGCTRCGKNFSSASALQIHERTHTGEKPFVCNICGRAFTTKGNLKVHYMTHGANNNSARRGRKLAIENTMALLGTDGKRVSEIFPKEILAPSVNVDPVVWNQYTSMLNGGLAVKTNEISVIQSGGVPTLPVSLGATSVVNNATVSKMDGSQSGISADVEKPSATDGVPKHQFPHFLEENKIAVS
# Method: universal PBM
# Form: double-stranded DNA, one strand shown
# Sample: in vitro
# Concentration: 600 nM
# Setting: 8-mer, flanks averaged, mean of replicates
# Reading: higher = stronger binding
Oligonucleotide,E-score
AGAGGCCT,-0.207
CCTATACC,-0.00698
ATCAAACA,0.171
ATACTGAT,0.208
AACACCAT,0.0367
GCTGTGTA,-0.00145
AATCGTCG,-0.103
CGCCCGCA,-0.267
AGCCCGTG,-0.339
CAGGGCAG,-0.236
CAGTGAGC,-0.164
GTATCACA,0.156
ATGGGGCG,-0.185
CTAATGCA,0.235
CGGACTGA,-0.204
GGATCATA,0.132
CTTAGTAC,0.0597
AATTTAAC,0.174
ATTTAAAA,0.333
ACACGATA,0.155
ACAGACGT,-0.0894
CCCAAAGA,0.045
CGGCCCTC,-0.433
ATCCTACA,0.00611
AAGTTCTA,0.103

# Set 6
# Target: CCNB2, cyclin fold, Cln2 fusion (human)
# Method: yeast growth competition, sequencing
# Sample: yeast
# Setting: weak parent motif
# Relative to: not given
# Reading: higher = stronger binding
# Starting sequence: RRM2 docking peptide (human); SKTARRIFQEPTE; partner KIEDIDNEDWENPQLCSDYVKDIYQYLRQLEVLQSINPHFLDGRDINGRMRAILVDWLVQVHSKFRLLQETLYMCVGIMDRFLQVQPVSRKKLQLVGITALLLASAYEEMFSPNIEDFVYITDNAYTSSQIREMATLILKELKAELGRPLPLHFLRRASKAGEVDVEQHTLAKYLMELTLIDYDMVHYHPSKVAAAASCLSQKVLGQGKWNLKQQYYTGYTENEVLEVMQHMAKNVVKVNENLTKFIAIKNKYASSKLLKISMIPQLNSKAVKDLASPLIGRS
Substitution,normalised enrichment score
I7A,0.581
Q9A,0.648
R5A,0.0799
R6A,0.0441
S1A,0.452
K2A,0.145

# Mixed results
Molecule,target,assay,test system,setting,how to read,measurement,result
"PhoQ, residues 284 288 289 292 302 303 HSYLQF","PhoP, residues 12 14 15 18 19 LWHVM (Escherichia coli, UniProt P23836)","Sort-seq, measured: YFP reporter",E. coli,"PhoQ-PhoP variant library, with: 10 µM Mg2+","relative to: high Mg2+ state, higher = stronger signaling",fold induction,22
